# Measurements gathered from unrelated publications.
# Protocols differ between the studies behind these lines. Numbers after ± are the reported error.
Molecule,target or system,assay,test system,setting,measurement,value
myricitrin,class IIa HDAC (bovine),"enzyme activity, inhibitor",bovine heart tissue lysate,,IC50,14 µM
CN[C@@](C)(C[18F])C(=O)O,A549 tumour model,,"host not given, heart","1 h, tumour-bearing",tracer uptake,3.5 %ID/g
COc1cccc(CCc2ccc(O)cc2)c1,Sp1 (human),"reporter gene, inhibitor",SW1353,control transcription factor,IC50,> 25 µg/mL
O=C(Nc1cccnn1)N1CCN([C@@H]2CCOc3cc(C(F)(F)F)ccc32)CC1,Na+ channel site 2,binding,,,IC50,11 µM
CNC(=O)CCC[C@@H](C)C[C@@H](OC(=O)[C@@H](C)CCCCO)C(C)(C)C,voltage-gated sodium channels,"veratridine-stimulated Na+ influx, antagonist, SBFI fluorescence",primary mouse cerebrocortical neurons,,IC50,> 10 µM
CC(C)(O)C(O)Cc1c(O)cc(/C=C/c2ccc(O)cc2)cc1O (centres unmarked),Sp1 (human),"reporter gene, inhibitor",SW1353,control transcription factor,IC50,> 25 µg/mL
NC[C@@H]1O[C@H](O[C@H]2[C@@H](O)[C@H](O[C@@H]3[C@@H](O)[C@H](N)C[C@H](N)[C@H]3O[C@H]3O[C@H](CO)C[C@H](O)[C@H]3N)O[C@@H]2CO)[C@H](N)[C@@H](O)[C@@H]1O,Mycobacterium smegmatis ribosome G1491C,"translation, cell-free luciferase synthesis",,,IC50,28.6 ± 0.9 µg/mL
COc1cc([C@@H]2c3cc4c(cc3[C@H](O)[C@H]3COC(=O)[C@H]23)OCO4)cc(OC)c1OC,"tubulin, bovine brain","tubulin assembly, inhibitor",,"37 °C, tubulin 5 µM, 2% DMSO, added: paclitaxel 5 µM",IC50,1.6 ± 0.02 µM
COc1ccccc1SC[C@H]1O[C@H](O[C@@H]2[C@@H](O)[C@H](O[C@H]3O[C@H](CN)[C@@H](O)C[C@H]3N)[C@@H](N)C[C@H]2N)[C@H](O)[C@@H](N)[C@@H]1O,Escherichia coli ribosome wild type,"EF-G-dependent translocation, inhibitor, toeprinting",,,IC50,100 µM
NCC1OC(OC2C(CO)OC(OC3C(O)C(N)CC(N)C3OC3OC(CO)C(OCCCc4ccccc4)C(O)C3N)C2O)C(N)C(O)C1O (centres unmarked),Mycobacterium smegmatis ribosome G1491C,"translation, cell-free luciferase synthesis",,,IC50,201 ± 25.8 µg/mL
COc1cccc(/C=C/c2ccc(O)cc2)c1,Sp1 (human),"reporter gene, inhibitor",SW1353,control transcription factor,IC50,25 µg/mL
Cc1cc2c(C(C)C)c(O)c(O)c(C=O)c2c(O)c1-c1c(C)cc2c(C(C)C)c(O)c(O)c(C=O)c2c1O,class I HDAC,enzyme activity,bovine heart lysate,,IC50,11 µM
Oc1ccc(/C=C/c2cccc(O)c2)cc1,Sp1 (human),"reporter gene, inhibitor",SW1353,control transcription factor,IC50,> 25 µg/mL
C=CC(=O)OCCO,lysine-containing peptide,"peptide depletion, mass spectrometry",,"24 h, pH 10.2, room temperature, added: lysine peptide 0.5 mM",IC50,9510 µM
NC[C@@H]1O[C@H](O[C@H]2[C@@H](O)[C@H](O[C@@H]3[C@@H](O)[C@H](N)C[C@H](N)[C@H]3O[C@H]3O[C@@H]4CO[C@@H](CCc5ccccc5)O[C@H]4[C@H](O)[C@H]3N)O[C@@H]2CO)[C@H](N)[C@@H](O)[C@@H]1O,Mycobacterium smegmatis ribosome G1491C,"translation, cell-free luciferase synthesis",,,IC50,124.1 ± 0.1 µg/mL
NC[C@H]1O[C@H](O[C@H]2[C@H](O)[C@@H](O[C@H]3O[C@H](CSc4ccccc4F)[C@@H](O)[C@H](N)[C@H]3O)[C@H](N)C[C@@H]2N)[C@H](N)C[C@@H]1O,"Escherichia coli ribosome, wild type","EF-G-dependent translocation, inhibitor, toeprinting",,"second inflection, biphasic fit",IC50,210 µM
Oc1ccc(/C=C/c2cc(O)cc(O)c2)cc1,Sp1 (human),"reporter gene, inhibitor",SW1353,control transcription factor,IC50,> 25 µg/mL
C1CCN(C23CC4CC(CC2C4)C3)CC1,NMDA receptor,"intracellular calcium, antagonist, Fura-2",cerebellar granule neurons,"added: glutamate 100 µM, glycine 10 µM",IC50,> 500 µM
C=C1C(=O)O[C@H]2[C@H]1CC/C(C)=C/CC[C@@]1(C)O[C@@H]21,Sp1 (human),"reporter gene, inhibitor",SW1353,control transcription factor,IC50,8.35 µg/mL
CO[C@@H]1[C@@H](O)[C@H](O[C@H]2CC[C@@]3(C)C(=CC[C@]4(O)[C@@H]3CC[C@]3(C)[C@@H]([C@H](C)O[C@@H]5O[C@H](CO)[C@@H](O)[C@H](OC(=O)CC(C)C)[C@H]5O)CC[C@@]34O)C2)O[C@H](C)[C@@H]1O[C@@H]1O[C@H](CO)[C@@H](O)[C@H](O)[C@H]1O,arginine-methylglyoxal glycation,"AGE formation, inhibitor",,,IC50,> 1300 µM
C[C@H]1CCCC(=O)N(C)/C=C/CC[C@@H](C)C(=O)O[C@H](C(C)(C)C)C1,voltage-gated sodium channels,"veratridine-stimulated Na+ influx, antagonist, SBFI fluorescence",primary mouse cerebrocortical neurons,,IC50,> 10 µM
CN[C@@H]1[C@@H](O)[C@@H](O[C@@H]2[C@@H](O)[C@H](O[C@H]3O[C@H]([C@@H](C)O)[C@@H](O)[C@H](O)[C@H]3N)[C@@H](N)C[C@H]2N)OC[C@]1(C)O,Leishmania tarentolae ribosome,"cell-free translation, inhibitor, refers to: EGFP reporter",Leishmania tarentolae S30 extract,,IC50,0.19 ± 0.03 µM
C[C@H](CCCC(N)=O)C[C@@H](OC(=O)[C@H](C)CC/C=C/I)C(C)(C)C,voltage-gated sodium channels,"veratridine-stimulated Na+ influx, antagonist, SBFI fluorescence",primary mouse cerebrocortical neurons,,IC50,> 10 µM
CCCCCCCCCCCCCCCCCCSC[C@H]1O[C@H](O[C@@H]2[C@@H](O)[C@H](O[C@H]3O[C@H](CN)[C@@H](O)C[C@H]3N)[C@@H](N)C[C@H]2N)[C@H](O)[C@@H](N)[C@@H]1O,Escherichia coli ribosome wild type,"EF-G-dependent translocation, inhibitor, toeprinting",,,IC50,> 1000 µM
COc1cc2c(cc1OC)-c1cc3ccc(OC)c(OC)c3c[n+]1CC2,class I HDAC,enzyme activity,bovine heart lysate,,IC50,27 µM
CC(C)/C=C/c1c(O)cc(/C=C/c2ccc(O)cc2)cc1O,Sp1 (human),"reporter gene, inhibitor",SW1353,control transcription factor,IC50,> 25 µg/mL
CCCCCCCCCCCCSC[C@H]1O[C@H](O[C@@H]2[C@@H](O)[C@H](O[C@H]3O[C@H](CN)[C@@H](O)C[C@H]3N)[C@@H](N)C[C@H]2N)[C@H](O)[C@@H](N)[C@@H]1O,Escherichia coli ribosome wild type,"EF-G-dependent translocation, inhibitor, toeprinting",,,IC50,> 1000 µM
CC(C)/C=C/c1c(O)cc(/C=C/C2=CC(=O)OC2CC(=O)O)cc1O (centres unmarked),Sp1 (human),"reporter gene, inhibitor",SW1353,control transcription factor,IC50,> 25 µg/mL
NC[C@@H]1O[C@H](O[C@H]2[C@@H](O)[C@H](O[C@@H]3[C@@H](O)[C@H](N)C[C@H](N)[C@H]3O[C@H]3O[C@H](CO)[C@@H](O)[C@H](O)[C@H]3N)O[C@@H]2CO)[C@H](N)[C@@H](O)[C@@H]1O,Mycobacterium smegmatis ribosome G1491C,"translation, cell-free luciferase synthesis",,,IC50,10.4 ± 2.86 µg/mL
